Assay results pooled from the literature.
Protocols differ between the studies behind these lines. “And” joins repeats or separate records; there may be more than shown. ± gives the spread as reported.
PYL8: PYL8 (Arabidopsis thaliana, UniProt Q9FGM1)
Sequence of UniProt Q9FGM1 (whole entry, looked up): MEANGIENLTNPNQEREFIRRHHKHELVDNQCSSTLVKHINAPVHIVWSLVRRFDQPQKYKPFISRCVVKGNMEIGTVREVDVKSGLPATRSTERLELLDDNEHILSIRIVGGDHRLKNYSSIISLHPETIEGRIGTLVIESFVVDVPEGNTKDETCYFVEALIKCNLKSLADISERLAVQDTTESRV
CGAS catalytic domain; with DNA: Cyclic GMP-AMP synthase, catalytic domain; with DNA (CGAS, Homo sapiens, UniProt Q8N884)
Sequence of UniProt Q8N884 (whole entry, looked up): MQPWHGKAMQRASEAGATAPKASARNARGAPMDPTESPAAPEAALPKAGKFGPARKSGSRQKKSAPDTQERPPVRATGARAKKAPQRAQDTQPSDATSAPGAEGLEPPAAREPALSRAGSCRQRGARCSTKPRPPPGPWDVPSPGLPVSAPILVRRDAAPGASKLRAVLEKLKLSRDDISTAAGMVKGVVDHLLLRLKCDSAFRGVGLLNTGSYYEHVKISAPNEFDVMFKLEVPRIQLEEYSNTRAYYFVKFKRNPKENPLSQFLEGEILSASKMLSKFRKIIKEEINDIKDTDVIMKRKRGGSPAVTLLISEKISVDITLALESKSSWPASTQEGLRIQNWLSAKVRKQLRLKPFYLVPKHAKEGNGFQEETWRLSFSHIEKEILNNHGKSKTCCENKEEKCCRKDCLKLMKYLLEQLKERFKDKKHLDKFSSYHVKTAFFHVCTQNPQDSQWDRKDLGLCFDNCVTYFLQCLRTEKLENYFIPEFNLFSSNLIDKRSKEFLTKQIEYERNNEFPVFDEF
USP49 ZnF-UBD domain: Ubiquitin carboxyl-terminal hydrolase 49, ZnF-UBD domain (USP49, Homo sapiens, UniProt Q70CQ1)
Sequence of UniProt Q70CQ1 (whole entry, looked up): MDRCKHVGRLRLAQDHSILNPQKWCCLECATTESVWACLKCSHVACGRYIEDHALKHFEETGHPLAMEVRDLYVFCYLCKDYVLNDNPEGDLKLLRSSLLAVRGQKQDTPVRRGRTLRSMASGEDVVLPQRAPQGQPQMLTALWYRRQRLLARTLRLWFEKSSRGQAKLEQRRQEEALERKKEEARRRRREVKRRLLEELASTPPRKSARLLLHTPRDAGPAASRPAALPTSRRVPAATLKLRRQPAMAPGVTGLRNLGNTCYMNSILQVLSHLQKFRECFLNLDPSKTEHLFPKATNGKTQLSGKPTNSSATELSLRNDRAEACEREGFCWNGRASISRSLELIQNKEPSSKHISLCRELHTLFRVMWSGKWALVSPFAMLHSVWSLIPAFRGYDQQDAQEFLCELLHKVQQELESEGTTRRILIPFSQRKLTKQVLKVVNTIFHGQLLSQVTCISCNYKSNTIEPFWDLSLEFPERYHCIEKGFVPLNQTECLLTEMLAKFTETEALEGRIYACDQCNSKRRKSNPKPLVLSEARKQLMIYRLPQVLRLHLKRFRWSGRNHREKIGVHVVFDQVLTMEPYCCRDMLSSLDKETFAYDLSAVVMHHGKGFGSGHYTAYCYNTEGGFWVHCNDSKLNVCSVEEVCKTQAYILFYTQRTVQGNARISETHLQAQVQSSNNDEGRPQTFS
Sequence of UniProt P43681 (whole entry, looked up): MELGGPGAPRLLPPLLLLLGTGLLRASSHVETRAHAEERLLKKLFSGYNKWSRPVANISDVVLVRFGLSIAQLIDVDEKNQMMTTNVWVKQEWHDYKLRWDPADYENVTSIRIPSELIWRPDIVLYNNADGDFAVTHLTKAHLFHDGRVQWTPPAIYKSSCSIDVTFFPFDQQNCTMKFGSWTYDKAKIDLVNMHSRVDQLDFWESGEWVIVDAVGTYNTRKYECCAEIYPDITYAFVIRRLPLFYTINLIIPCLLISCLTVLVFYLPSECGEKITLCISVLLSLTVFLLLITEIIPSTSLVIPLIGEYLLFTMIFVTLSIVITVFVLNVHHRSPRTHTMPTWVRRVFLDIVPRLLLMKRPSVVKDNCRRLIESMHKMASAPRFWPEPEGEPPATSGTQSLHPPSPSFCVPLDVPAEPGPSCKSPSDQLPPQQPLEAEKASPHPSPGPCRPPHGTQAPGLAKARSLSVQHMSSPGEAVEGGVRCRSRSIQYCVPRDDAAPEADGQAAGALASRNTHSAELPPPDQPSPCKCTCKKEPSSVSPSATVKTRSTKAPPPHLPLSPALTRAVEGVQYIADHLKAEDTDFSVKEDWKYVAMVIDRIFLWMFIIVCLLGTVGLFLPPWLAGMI
Sequence of UniProt P17787 (whole entry, looked up): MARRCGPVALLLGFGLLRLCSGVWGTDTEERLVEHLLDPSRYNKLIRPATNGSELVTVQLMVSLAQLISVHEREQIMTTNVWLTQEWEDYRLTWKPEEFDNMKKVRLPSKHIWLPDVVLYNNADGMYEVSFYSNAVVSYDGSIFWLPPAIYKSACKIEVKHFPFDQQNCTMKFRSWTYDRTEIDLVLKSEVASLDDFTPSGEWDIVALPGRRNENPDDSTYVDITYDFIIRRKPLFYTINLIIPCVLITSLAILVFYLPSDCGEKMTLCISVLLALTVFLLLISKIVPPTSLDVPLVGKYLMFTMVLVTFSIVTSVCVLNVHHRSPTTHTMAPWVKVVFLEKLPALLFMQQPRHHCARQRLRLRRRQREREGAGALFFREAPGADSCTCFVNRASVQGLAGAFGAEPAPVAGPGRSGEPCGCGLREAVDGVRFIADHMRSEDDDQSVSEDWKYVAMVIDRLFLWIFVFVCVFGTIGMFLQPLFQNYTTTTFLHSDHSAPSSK
Sequence of UniProt Q9Y616 (whole entry, looked up): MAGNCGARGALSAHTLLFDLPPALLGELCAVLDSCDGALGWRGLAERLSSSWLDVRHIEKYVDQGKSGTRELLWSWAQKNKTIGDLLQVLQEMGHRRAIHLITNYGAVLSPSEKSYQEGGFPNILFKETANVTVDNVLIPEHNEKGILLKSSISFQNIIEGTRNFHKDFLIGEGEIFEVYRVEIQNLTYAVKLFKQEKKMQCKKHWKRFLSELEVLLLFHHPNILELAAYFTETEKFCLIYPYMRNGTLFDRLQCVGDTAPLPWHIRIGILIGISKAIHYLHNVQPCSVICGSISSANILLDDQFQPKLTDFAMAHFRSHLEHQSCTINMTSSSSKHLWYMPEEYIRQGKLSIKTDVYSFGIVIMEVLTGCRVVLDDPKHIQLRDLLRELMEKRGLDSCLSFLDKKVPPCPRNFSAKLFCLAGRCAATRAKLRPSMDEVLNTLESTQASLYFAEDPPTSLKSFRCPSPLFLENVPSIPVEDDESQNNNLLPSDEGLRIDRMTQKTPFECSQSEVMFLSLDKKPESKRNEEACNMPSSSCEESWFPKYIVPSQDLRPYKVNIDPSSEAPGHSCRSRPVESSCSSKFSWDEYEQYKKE
Sequence of UniProt P14618 (whole entry, looked up): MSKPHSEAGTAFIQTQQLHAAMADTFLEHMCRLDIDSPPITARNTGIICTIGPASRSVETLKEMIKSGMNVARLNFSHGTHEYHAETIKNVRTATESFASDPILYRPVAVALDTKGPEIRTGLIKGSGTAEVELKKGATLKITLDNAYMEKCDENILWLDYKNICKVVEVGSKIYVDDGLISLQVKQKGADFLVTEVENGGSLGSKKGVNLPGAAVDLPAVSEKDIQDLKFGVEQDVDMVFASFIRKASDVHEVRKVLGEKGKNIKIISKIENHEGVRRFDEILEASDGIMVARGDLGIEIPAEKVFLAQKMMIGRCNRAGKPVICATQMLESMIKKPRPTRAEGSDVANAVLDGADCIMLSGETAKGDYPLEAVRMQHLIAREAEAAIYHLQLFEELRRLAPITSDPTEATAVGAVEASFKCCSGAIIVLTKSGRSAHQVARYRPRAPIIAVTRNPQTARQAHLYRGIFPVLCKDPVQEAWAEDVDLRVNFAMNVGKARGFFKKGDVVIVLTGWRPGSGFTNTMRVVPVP
Sequence of UniProt Q9Y210 (whole entry, looked up): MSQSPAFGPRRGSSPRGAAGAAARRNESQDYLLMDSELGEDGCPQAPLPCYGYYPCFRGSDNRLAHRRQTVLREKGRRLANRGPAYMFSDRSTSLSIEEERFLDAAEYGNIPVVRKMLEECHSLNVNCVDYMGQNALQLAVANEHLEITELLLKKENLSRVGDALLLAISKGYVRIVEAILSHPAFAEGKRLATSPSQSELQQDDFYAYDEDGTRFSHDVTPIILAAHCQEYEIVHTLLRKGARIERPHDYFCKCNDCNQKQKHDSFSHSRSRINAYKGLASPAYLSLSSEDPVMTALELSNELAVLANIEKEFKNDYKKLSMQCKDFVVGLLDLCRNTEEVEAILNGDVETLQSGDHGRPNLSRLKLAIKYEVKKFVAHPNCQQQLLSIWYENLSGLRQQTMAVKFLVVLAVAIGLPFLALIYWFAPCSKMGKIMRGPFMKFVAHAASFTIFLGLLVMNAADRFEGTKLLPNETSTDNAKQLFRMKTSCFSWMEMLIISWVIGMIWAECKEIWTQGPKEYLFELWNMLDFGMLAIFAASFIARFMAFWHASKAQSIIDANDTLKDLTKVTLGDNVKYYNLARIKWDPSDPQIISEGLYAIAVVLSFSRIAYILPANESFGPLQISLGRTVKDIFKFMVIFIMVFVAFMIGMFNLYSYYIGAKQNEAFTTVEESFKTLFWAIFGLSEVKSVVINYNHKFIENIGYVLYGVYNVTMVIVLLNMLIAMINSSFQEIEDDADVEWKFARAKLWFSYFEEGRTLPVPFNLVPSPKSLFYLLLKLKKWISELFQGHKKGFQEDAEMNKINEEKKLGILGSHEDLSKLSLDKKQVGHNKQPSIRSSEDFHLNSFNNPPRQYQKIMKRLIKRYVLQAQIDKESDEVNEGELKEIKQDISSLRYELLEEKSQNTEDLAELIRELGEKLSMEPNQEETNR
Sequence of UniProt P34995 (whole entry, unmodified, looked up): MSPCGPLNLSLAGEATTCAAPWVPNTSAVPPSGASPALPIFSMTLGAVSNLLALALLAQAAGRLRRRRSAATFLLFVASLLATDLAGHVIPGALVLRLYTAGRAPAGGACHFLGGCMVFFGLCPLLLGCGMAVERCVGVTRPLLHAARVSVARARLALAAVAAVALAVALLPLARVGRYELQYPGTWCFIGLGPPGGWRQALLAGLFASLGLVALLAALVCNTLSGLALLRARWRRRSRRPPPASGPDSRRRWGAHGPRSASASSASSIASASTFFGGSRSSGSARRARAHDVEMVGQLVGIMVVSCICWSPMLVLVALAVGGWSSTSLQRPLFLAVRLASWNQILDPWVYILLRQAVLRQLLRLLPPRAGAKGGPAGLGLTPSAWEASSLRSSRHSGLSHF

SMILES | target | test | system | conditions | measurement | result
COc1cc(F)c([C@@H]2CNC(=O)[C@H]2NC(=O)Nc2ccccc2)c(F)c1 | Formyl peptide receptor 2 (Mus musculus, UniProt O88536) | β-arrestin1 recruitment, agonist, BRET | HEK293 expressing mouse FPR2 | – | EC50 | 133 nM
O=C(Cc1cc(C2CC2)c(-n2cc(CNC(=O)c3ccc4cccc(F)c4n3)nn2)c(C2CC2)c1)NC1(C(=O)O)CCCCC1 | PYL8 | phosphatase activity recovery, antagonist | – | together with: HAB1, ABA 5000 nM | EC50 | 119 ± 21 nM
CCCCC[C@H](O)/C=C/[C@H]1[C@H](O)CC(=O)[C@@H]1C/C=C\CCCC(=O)O | PTGER1 (Homo sapiens, UniProt P34995, Y99A) | IP1 accumulation, agonist | AD293 | EP1 Y99A mutant | EC50 | 31.6 nM
NCC(=O)O | Sodium- and chloride-dependent glycine transporter 2 (Homo sapiens, UniProt Q9Y345) | transport current, substrate, two-electrode voltage clamp | Xenopus laevis oocytes | – | EC50 | 18000 ± 1200 nM
O=C(Cc1cc(C2CC2)c(-n2cc(CNC(=O)c3cccc(Br)n3)nn2)c(C2CC2)c1)NC1(C(=O)O)CCCCC1 | PYL8 | phosphatase activity recovery, antagonist | – | together with: HAB1, ABA 5000 nM | EC50 | 295 ± 49 nM
O=C(O)c1ccc(S(=O)(=O)N2CCCCC2)cc1 | Trpv2 (Rattus norvegicus, UniProt Q9WUD2) | calcium influx, agonist, Fura-2 fluorescence | Pichia pastoris membrane vesicles | – | EC50 | 16000 nM
Cc1nn(-c2nc3ccccc3s2)c(O)c1C(c1ccccc1C(=O)O)c1c(C)nn(-c2nc3ccccc3s2)c1O | CGAS catalytic domain; with DNA | cGAS-DNA phase separation, inhibitor | – | – | EC50 | 184 nM and 426 nM
COc1cc(Nc2ncc3c(n2)-c2ccc(Cl)cc2C(c2c(F)cccc2OC)=NC3)ccc1C(=O)O | IRAK3 (Homo sapiens, UniProt Q9Y616) | binding, kinobead competition | MV4-11 cell lysate | – | EC50 | 3490 nM
Cc1ccc(C(=O)NCc2cn(-c3c(C4CC4)cc(CC(=O)NC4(C(=O)O)CCCCC4)cc3C3CC3)nn2)o1 | PYL8 | phosphatase activity recovery, antagonist | – | together with: HAB1, ABA 5000 nM | EC50 | 765 ± 233 nM
CCn1c(-c2nc3cc(C(=O)N4CCC[C@@H](N)C4)cc(OC)c3n2C)cc2cccnc21 | CHRNA1 (Homo sapiens, UniProt P02708) | agonist, intracellular Ca2+ fluorescence | – | – | EC50 | > 50100 nM
CNC(=O)c1cc(Oc2ccc(NC(=O)Nc3ccc(Cl)c(C(F)(F)F)c3)cc2)ccn1 | Metalloendopeptidase OMA1, mitochondrial (OMA1, Homo sapiens, UniProt Q96E52) | luciferase reporter activation, Luke-S1 protease reporter | human cells | – | EC50 | 4800 nM
O=C(O)CCC(=O)N1CCc2ccccc21 | USP49 ZnF-UBD domain | – | – | – | Kd | > 1000 µM
CCCCC[C@H](O)/C=C/[C@H]1C(=O)C[C@H](O)[C@@H]1C/C=C\CCCC(=O)O | PTGDR2 (Homo sapiens, UniProt Q9Y5Y4) | agonist, cell-based | – | – | EC50 | 4.9 nM
O=C(Cc1cc(C2CC2)c(-n2cc(CNC(=O)c3cnc4ccccc4n3)nn2)c(C2CC2)c1)NC1(C(=O)O)CCCCC1 | PYL8 | phosphatase activity recovery, antagonist | – | together with: HAB1, ABA 5000 nM | EC50 | 172 ± 46 nM
Cc1cc(NC(=O)CCC(=O)O)nn1C | USP49 ZnF-UBD domain | – | – | – | Kd | > 1000 µM
O=C(Cc1cc(C2CC2)c(-n2cc(CNC(=O)c3ccc4ccccc4c3)nn2)c(C2CC2)c1)NC1(C(=O)O)CCCCC1 | PYL8 | phosphatase activity recovery, antagonist | – | together with: HAB1, ABA 5000 nM | EC50 | 1010 ± 302 nM
O=C(Nc1ccn(Cc2ccc(O)cc2C(F)(F)F)n1)c1c(F)cccc1F | TRPC6 (Homo sapiens, UniProt Q9Y210) | ion channel activity, agonist | cells overexpressing TRPC6 | human receptor | EC50 | > 10000 nM
CC(=O)c1cc([N+](=O)[O-])c(Sc2cccc(Cl)c2Cl)s1 | USP20 (Homo sapiens, UniProt Q9Y2K6) | enzyme activity, inhibitor | – | – | EC50 | > 50000 nM
O=C(O)c1cccnc1Nc1cccc(C(F)(F)F)c1 | BK channel alpha subunit (Cavia porcellus, UniProt A0A286XP95) | delayed rectifier K+ current, activator | dispersed vascular smooth muscle cells, guinea pig, AICA arteriole | at +40 mV | EC50 | 301000 nM
CCn1c(-c2nc3ccc(C(=O)N4CCCC(N)C4)cc3n2C)cc2ccccc21 (stereo not drawn) | CNR2 (Homo sapiens, UniProt P34972) | agonist, yeast FDGlu reporter | yeast | – | EC50 | > 100000 nM
C[N+](C)(C)CCO | Chrnd/Chrna1/Chrne (Mus musculus, UniProt P02716+P04756+P20782, G173K/S470W) | cell-based | – | – | EC50 | 220000 nM
CCOc1ccc(NC(=O)O[C@@H](Cn2nc(C(C)C)cc2C(C)C)C(C)C)cc1 | Neuronal acetylcholine receptor; alpha4/beta2 (Homo sapiens, UniProt P17787+P43681) | ACh-evoked current, positive allosteric modulator, two-electrode voltage clamp | – | low-sensitivity stoichiometry, together with: ACh 100 µM | EC50 | 800 nM and ~800 nM
O=C(COP(=O)(O)O)[C@@H](O)[C@H](O)[C@H](O)COP(=O)(O)O | Pyruvate kinase PKM (PKM, Homo sapiens, UniProt P14618) | pyruvate kinase activity, activator | MGC-803 cell lysate | without AIM | EC50 | 43.9 ± 18.4 nM
Cc1nn(-c2nc3c(F)cc(F)cc3s2)c(O)c1C(c1ccccc1C(F)(F)F)c1c(C)nn(-c2nc3c(F)cc(F)cc3s2)c1O | CGAS catalytic domain; with DNA | cGAS phase separation, inhibitor | – | – | EC50 | 2160 nM and 1620 nM
Nc1nc2c(ncn2[C@@H]2O[C@@H]3COP(=O)(O)O[C@H]3[C@H]2O)c(=O)[nH]1 | Cone cGMP-gated channel (Morone saxatilis, UniProt Q3I0N1+Q3I0N2) | channel current, agonist, suction electrode | Morone saxatilis cone outer segments | together with: 0.2 µM Ca2+ | EC50 | 142000 nM
O=C(Cc1cc(C2CC2)c(-n2cc(CNC(=O)c3cc(Br)co3)nn2)c(C2CC2)c1)NC1(C(=O)O)CCCCC1 | PYL8 | phosphatase activity recovery, antagonist | – | together with: HAB1, ABA 5000 nM | EC50 | 293 ± 85 nM
CCOCc1nc(O)c(-c2nnc(Cc3ccc(Cl)cn3)o2)c(O)c1-c1c(OC)cccc1OC | Apelin receptor (Canis lupus familiaris, UniProt A0A8C0JGC4) | cAMP inhibition, agonist | HEK293 | dog receptor | EC50 | 0.03 ± 0.01 nM

Repeated from above:
SMILES | target | test | system | conditions | measurement | result
C[N+](C)(C)CCO | Chrnd/Chrna1/Chrne (Mus musculus, UniProt P02716+P04756+P20782, G173K/S470W) | cell-based | – | – | EC50 | 220000 nM
CCOc1ccc(NC(=O)O[C@@H](Cn2nc(C(C)C)cc2C(C)C)C(C)C)cc1 | Neuronal acetylcholine receptor; alpha4/beta2 (Homo sapiens, UniProt P17787+P43681) | ACh-evoked current, positive allosteric modulator, two-electrode voltage clamp | – | low-sensitivity stoichiometry, together with: ACh 100 µM | EC50 | 800 nM and ~800 nM
O=C(COP(=O)(O)O)[C@@H](O)[C@H](O)[C@H](O)COP(=O)(O)O | Pyruvate kinase PKM (PKM, Homo sapiens, UniProt P14618) | pyruvate kinase activity, activator | MGC-803 cell lysate | without AIM | EC50 | 43.9 ± 18.4 nM
Cc1nn(-c2nc3c(F)cc(F)cc3s2)c(O)c1C(c1ccccc1C(F)(F)F)c1c(C)nn(-c2nc3c(F)cc(F)cc3s2)c1O | CGAS catalytic domain; with DNA | cGAS phase separation, inhibitor | – | – | EC50 | 2160 nM and 1620 nM
